Results from different studies.
Parts stem from different laboratories: compare values within a part only. Numbers after ± are the reported error.

Block 1 — cell line: MDA-MB-231; time: 72 h
SMILES | CC50 [µM]
Cc1ccc(CNC(=O)c2cn(Cc3ccc(Cl)cc3)c3ccc(Oc4ccccc4)cc3c2=O)cc1 | 16.4 ± 0.42
O=C(NCc1ccc(C(F)(F)F)cc1)c1cn(Cc2ccc(Cl)cc2)c2ccc(Oc3ccccc3)cc2c1=O | 18 ± 2.45
O=C(NCc1ccc(F)cc1)c1cn(Cc2ccc(F)cc2)c2ccc(Oc3ccccc3)cc2c1=O | 32 ± 1.21
O=C(NCc1ccc(F)cc1)c1cn(Cc2ccc(C(F)(F)F)cc2)c2ccc(Oc3ccccc3)cc2c1=O | 27.3 ± 8.25

Further values, each from its own experiment
Compound | tested on | assay | system | setting | measurement | result
COc1ccc(N=Nc2c(N)nn3c(-c4ccc(C)cc4)cc(-c4ccc(OCc5ccccc5)cc4)nc23)cc1 | Saccharomyces cerevisiae | broth microdilution | ATCC 9763 | – | MFC/MIC ratio | 3.9
CCOc1c([C@H](C)n2nc(C)c3c(N)ncnc32)cc(Cl)c(F)c1[C@@H]1CNC(=O)C1 | – | – | patients, monotherapy | oral, 10 mg once daily, cycle 1 day 15 | half-life | 9.9 ± 1.9 h
CC[C@H](C)[C@H](NC(=O)[C@@H]1CCCN1C(=O)CNC(=O)[C@H](Cc1ccccc1)NC(=O)[C@H](CC(N)=O)NC(=O)[C@H](CC(N)=O)NC(=O)[C@H](CO)NC(=O)[C@H](CO)NC(=O)[C@H](Cc1c[nH]cn1)NC(=O)[C@H](CCCNC(=N)N)NC(=O)[C@H](CC(C)C)NC(=O)[C@H](Cc1ccccc1)NC(=O)[C@H](CCC(=O)O)NC(=O)[C@H](C)NC(=O)[C@H](CC(C)C)NC(=O)[C@H](CCCNC(=N)N)NC(=O)[C@H](CCC(N)=O)NC(=O)[C@@H](NC(=O)[C@H](C)NC(=O)[C@@H]1CSSC[C@H](NC(=O)[C@H](CCCCN)NC(=O)CC[C@H](NC(=O)CCCCCCCCCCCCCCCCCCC(=O)O)C(=O)O)C(=O)N[C@@H](CC(N)=O)C(=O)N[C@@H]([C@@H](C)O)C(=O)N[C@@H](C)C(=O)N[C@@H]([C@@H](C)O)C(=O)N1)[C@@H](C)O)C(=O)N[C@@H](CC(C)C)C(=O)N1CCC[C@H]1C(=O)N1CCC[C@H]1C(=O)N[C@H](C(=O)N[C@@H](CC(N)=O)C(=O)N[C@H](C(=O)NCC(=O)N[C@@H](CO)C(=O)N[C@@H](CC(N)=O)C(=O)N[C@H](C(=O)N1CCC[C@H]1C(N)=O)[C@@H](C)O)C(C)C)[C@@H](C)O | – | conditioned taste avoidance | lean male Sprague-Dawley rat | subcutaneous, 72 h | ED50 | 4.2 nmol/kg
Cc1ccc(N=Nc2c(N)nn3c(-c4ccc(C)cc4)cc(-c4ccc(OCc5ccccc5)cc4)nc23)cc1 | Escherichia coli | – | ATCC 25955 | – | MBC/MIC ratio | 16

For quick reference, copied from above (block 1):
SMILES | CC50 [µM]
O=C(NCc1ccc(C(F)(F)F)cc1)c1cn(Cc2ccc(Cl)cc2)c2ccc(Oc3ccccc3)cc2c1=O | 18 ± 2.45
